Experimental data from different studies.
Each line is one published result; not all experiments were run side by side. ± marks the error that the study gave.
rep main protease: Replicase polyprotein 1ab, main protease (rep, Severe acute respiratory syndrome coronavirus 2, UniProt P0DTD1)

SMILES	tested on	assay	test system	conditions	how to read	quantity	result
CC[C@H](C)[C@H](NC(=O)[C@H](CC(C)C)NC(=O)[C@H](Cc1c[nH]c2ccccc12)NC(=O)[C@H](CCC(N)=O)NC(=O)[C@@H](NC(=O)[C@H](Cc1ccccc1)NC(=O)[C@H](C)NC(=O)[C@H](CCCCNC(=O)COCCOCCNC(=O)COCCOCCNC(=O)CC[C@H](NC(=O)CCCCCCCCCCCCCCCCCCC(=O)O)C(=O)O)NC(=O)[C@H](CCC(N)=O)NC(=O)[C@H](C)NC(=O)[C@@H](NC(=O)[C@H](CCCCN)NC(=O)[C@H](CC(=O)O)NC(=O)[C@H](CC(C)C)NC(=O)C(C)(C)NC(=O)[C@@H](NC(=O)[C@H](CO)NC(=O)[C@H](Cc1ccc(O)cc1)NC(=O)[C@H](CC(=O)O)NC(=O)[C@H](CO)NC(=O)[C@@H](NC(=O)[C@H](Cc1ccccc1)NC(=O)[C@@H](NC(=O)CNC(=O)[C@H](CCC(=O)O)NC(=O)C(C)(C)NC(=O)[C@@H](N)Cc1ccc(O)cc1)[C@@H](C)O)[C@@H](C)O)[C@@H](C)CC)[C@@H](C)CC)C(C)C)C(=O)N[C@@H](C)C(=O)NCC(=O)NCC(=O)N1CCC[C@H]1C(=O)N[C@@H](CO)C(=O)N[C@@H](CO)C(=O)NCC(=O)N[C@@H](C)C(=O)N1CCC[C@H]1C(=O)N1CCC[C@H]1C(=O)N1CCC[C@H]1C(=O)N[C@@H](CO)C(N)=O	–	–	healthy subjects, single ascending dose	2.5 mg, day 29	–	serum lipase	28.5 ± 16 U/L
COc1ccc(-c2ccnc3[nH]nc(C#Cc4cccnc4)c23)cc1OC	Venezuelan equine encephalitis virus	viral replication	U-87 MG, TC-83	–	–	EC50	0.92 ± 0.01 µM
O=C(NCC1CCOC2(CCN(C(=O)C3(c4ccccc4)CCCC3)CC2)C1)Nc1ccccc1 (centres unmarked)	Venezuelan equine encephalitis virus	viral replication	–	–	–	EC50	> 39.8 µM
C=C(C)C1(O)OC(=O)C=C1OC (centres unmarked)	rep main protease	reporter gene (Gaussia luciferase), inhibitor	HEK293T	20 µM	–	inhibition	-2.27%
O=C(CCl)NC(=O)NCCc1cccs1	Venezuelan equine encephalitis virus	viral replication	MRC5	–	–	IC50	2.1 ± 0.5 µM
CN(C)S(=O)(=O)NCC1CCOC2(CCN(C(=O)C3(c4ccccc4)CCCO3)CC2)C1 (centres unmarked)	Venezuelan equine encephalitis virus	viral replication	–	40 µM	–	inhibition	< 10%
C(#Cc1c[nH]c2nccc(-c3cccs3)c12)c1cccnc1	Venezuelan equine encephalitis virus	viral replication	U-87 MG, TC-83	–	–	EC50	1.71 ± 0.07 µM
C[C@H](NC(=O)CCC(F)(F)F)C(=O)N[C@@H]1C(=O)N(CCO)c2ncccc2-c2ccccc21	rep main protease	reporter gene (Gaussia luciferase), inhibitor	–	20 µM	–	inhibition	-0.165%
Fc1ccc(-c2ccnc3[nH]cc(C#Cc4cccnc4)c23)cc1	Venezuelan equine encephalitis virus	viral replication	U-87 MG, TC-83	–	–	EC50	> 10 µM
C=CC(=O)N1C[C@@H]2CC[C@@H]2[C@H]1C(=O)O	Venezuelan equine encephalitis virus	viral replication	MRC5	–	–	IC50	> 10 µM
COc1cc2c(cc1C(=O)Nc1ccc(C(C)(C)C)cc1)CCCCC2	Venezuelan equine encephalitis virus	viral replication	NHDF	–	–	EC90	> 40 µM
Cn1cnc(Cn2c(=O)[nH]/c(=N\c3cc4cn(C)nc4cc3Cl)n(Cc3cc(F)c(F)cc3F)c2=O)n1	–	–	human, mild renal impairment	oral, 375 mg	–	dry mouth TEAE, Moderate severity	0%
CNC(=O)[C@@H](NC(=O)[C@H](CC(C)C)[C@H](O)C(=O)NO)C(C)(C)C	C2C12	–	–	1 µM, together with: GA venom	baseline: venom alone	viability difference	4.99%
O=C(N1CCC2(CC1)C[C@@H](CN1CCCCS1(=O)=O)CCO2)C1(c2ccccc2)CCCC1	Venezuelan equine encephalitis virus	–	–	concentration not given, cell-based	–	antiviral activity	inactive
Nc1ncnc2c([C@@H]3N[C@H](CO)[C@@H](O)[C@H]3O)c[nH]c12	Venezuelan equine encephalitis virus	viral replication	HeLa, SH3	100 µM	–	inhibition	29.2%
CN(C)S(=O)(=O)NCC1CCOC2(CCN(C(=O)C3(c4ccccc4F)CCCC3)CC2)C1 (centres unmarked)	Venezuelan equine encephalitis virus	viral replication	–	–	–	EC50	7.94 µM
C(#Cc1c[nH]c2nccc(-c3ccsc3)c12)c1cccnc1	Venezuelan equine encephalitis virus	viral replication	U-87 MG, TC-83	–	–	EC50	2.09 ± 0.14 µM
O=C(N1CCC2(CC1)CC(CN1CCCCS1(=O)=O)CCO2)C1(c2cc(F)cc(F)c2)CCCC1 (centres unmarked)	Venezuelan equine encephalitis virus	viral replication	–	–	–	EC50	1.58 µM
NC(=O)c1ccc(/C=C/C(=O)N2C[C@H]3CCC[C@@H](C2)N3C(=O)CCn2c(O)ccc2O)cc1	rep main protease	enzyme activity, inhibitor	–	5 µM, run 1	–	inhibition	17.2%
CS(=O)(=O)c1cc(C#N)cc(NC(=O)CCl)c1	Venezuelan equine encephalitis virus	viral replication	MRC5	–	–	IC50	0.11 ± 0.02 µM
O=C(N1CCC2(CC1)CC(CNCC(F)(F)F)CCO2)C1(c2ccccc2)CCCC1 (centres unmarked)	Venezuelan equine encephalitis virus	viral replication	–	40 µM	–	inhibition	60%
CS(=O)(=O)C=CCNC(=O)c1ccc2c(c1)NC(=O)CC2	Venezuelan equine encephalitis virus	viral replication	MRC5	–	–	IC50	> 10 µM
O=C1O[C@H]2[C@@H]3OC(=O)c4cc(O)c(O)c(O)c4-c4c(cc(O)c(O)c4O)C(=O)OC[C@H]2O[C@@H](OC(=O)c2cc(O)c(O)c(O)c2)[C@@H]3OC(=O)c2cc(O)c(O)c3c2[C@@H]2C1=CC(=O)[C@](O)(O3)C2(O)O	Spike glycoprotein (Severe acute respiratory syndrome coronavirus 2, UniProt P0DTC2)	binding, BLI	–	–	–	Kd	2.03 µM

Excerpt of the above:
SMILES	tested on	assay	test system	conditions	how to read	quantity	result
C=C(C)C1(O)OC(=O)C=C1OC (centres unmarked)	rep main protease	reporter gene (Gaussia luciferase), inhibitor	HEK293T	20 µM	–	inhibition	-2.27%
O=C(CCl)NC(=O)NCCc1cccs1	Venezuelan equine encephalitis virus	viral replication	MRC5	–	–	IC50	2.1 ± 0.5 µM
CN(C)S(=O)(=O)NCC1CCOC2(CCN(C(=O)C3(c4ccccc4)CCCO3)CC2)C1 (centres unmarked)	Venezuelan equine encephalitis virus	viral replication	–	40 µM	–	inhibition	< 10%
